# Assay results pooled from the literature.
# Protocols differ between the studies behind these lines. ± gives the spread as reported.
Structure (SMILES),cell line,test,conditions,how to read,quantity,value
CS(=O)(=O)c1cc(Br)cc(NCc2cccc(CN3C[C@H](O)[C@@H](O)[C@H](O)[C@H]3CO)c2)c1,A549 expressing ACE2,WST-1,"25 µM, 3 days",,viability,100%
NCC[C@H](Oc1ccc(C(F)(F)F)cc1)c1ccccc1,African green monkey cells,,5 days,,CC50,10.6 µM
CC[C@H](C)[C@H](NC(=O)[C@H](CCCNC(=N)N)NC(=O)[C@H](CCCCN)NC(=O)[C@H](CCC(N)=O)NC(=O)[C@H](CCCNC(=N)N)NC(=O)[C@H](CCCNC(=N)N)NC(=O)[C@H](Cc1c[nH]cn1)NC(=O)[C@H](CC(C)C)NC(=O)[C@H](CC(C)C)NC(=O)[C@H](CCCNC(=N)N)NC(=O)[C@H](CC(C)C)NC(=O)CN)C(=O)N[C@H](C(=O)NCC(=O)NCC(=O)N[C@@H](CCCCN)C(=O)N[C@@H](CC(N)=O)C(=O)N[C@@H](CO)C(=O)N[C@@H](CC(C)C)C(=O)N[C@@H](CCCNC(=N)N)C(=O)NCC(=O)NCC(=O)N[C@@H](Cc1c[nH]c2ccccc12)C(=O)N1CCC[C@H]1C(=O)N[C@@H](Cc1c[nH]c2ccccc12)C(=O)N[C@@H](CCC(N)=O)C(=O)N[C@H](C(=O)N[C@@H](CO)C(=O)N[C@@H](CC(C)C)C(=O)N[C@@H](CCCNC(=N)N)C(=O)N[C@@H](CC(C)C)C(=O)N[C@@H](CCCCN)C(=O)O)C(C)C)[C@@H](C)CC,human red blood cells,hemolysis,,,HC50,259 µmol/L
CN(CC[C@H](Oc1cccc2ccccc12)c1cccs1)N=O,TK6 expressing CYP2C19,,"0.5 µM, 4 h, without S9",relative to: vehicle,relative survival,78.2%
CCCCCCCCCC(=O)N[C@@H](CCCCN)C(=O)N[C@@H](CCCCN)C(=O)N[C@@H](C)C(=O)N[C@@H](CC(C)C)C(=O)N[C@@H](CCCCN)C(=O)N[C@@H](CC(C)C)C(=O)N[C@@H](C)C(=O)N[C@@H](CCCCN)C(=O)N[C@@H](CCCCN)C(=O)N1CCC[C@H]1C(=O)N[C@@H](CC(C)C)C(=O)N[C@@H](CCCCN)C(=O)N[C@@H](CC(C)C)C(=O)N[C@@H](CC(C)C)C(=O)N[C@@H](CCCCN)C(N)=O,human red blood cells,haemolysis,"6 h, 37 °C, 5% haematocrit in PBS",,MHC10,> 160 µM
Nc1nc2c(ncn2[C@@H]2O[C@@H]3COP(=O)(O)O[C@H]4[C@@H](O)[C@H](n5cnc6c(=O)[nH]c(N)nc65)O[C@@H]4COP(=O)(O)O[C@H]3[C@H]2O)c(=O)[nH]1,HFF-1,,100 µg/mL,,viability,82.8%
CC[C@H](C)[C@H](NC(=O)CNC(=O)[C@H](CCSC)NC(=O)[C@H](CO)NC(=O)[C@@H](NC(=O)[C@H](CCC(N)=O)NC(=O)[C@H](CC(C)C)NC(=O)CNC(=O)[C@@H](NC(=O)[C@H](CO)NC(=O)[C@H](CCCCN)NC(=O)[C@H](CC(C)C)NC(=O)[C@H](CCCCN)NC(=O)[C@H](CCCCN)NC(=O)[C@H](CCCCN)NC(=O)[C@@H](NC(=O)[C@H](CCCCN)NC(=O)[C@@H]1CSSC[C@H](NC(=O)[C@H](CCCCN)NC(=O)[C@@H](N)CCCCN)C(=O)N[C@@H](CCCCN)C(=O)N[C@@H](Cc2ccccc2)C(=O)N[C@@H](CC(C)C)C(=O)N1)C(C)C)C(C)C)[C@@H](C)CC)C(=O)O,RAW264.7,MTT,24 h,,lowest toxic concentration,> 6.25 µM
CC[C@H](C)[C@H](NC(=O)[C@H](CC(=O)O)NC(=O)[C@@H](NC(=O)[C@H](CC(N)=O)NC(=O)[C@@H]1CCCN1C(=O)[C@@H](NC(=O)[C@H](Cc1ccccc1)NC(=O)CNC(=O)CNC(=O)CNC(=O)[C@H](CC(C)C)NC(=O)[C@H](CCCCN)NC(=O)[C@H](CCCCN)NC(=O)[C@H](CC(C)C)NC(=O)[C@H](CC(C)C)NC(=O)[C@H](CC(C)C)NC(=O)[C@H](CC(C)C)NC(=O)[C@H](CC(C)C)NC(=O)[C@H](CCCCN)NC(=O)[C@H](CCCCN)NC(=O)[C@@H](N)CC(C)C)[C@@H](C)O)[C@@H](C)O)C(=O)N[C@H](C(=O)N[C@H](C(=O)N[C@@H](CCCNC(=N)N)C(=O)N[C@H](C(=O)N[C@H](C(=O)O)[C@@H](C)O)[C@@H](C)O)[C@@H](C)O)[C@@H](C)CC,human red blood cells,,"1 h, 37 °C, 10% hemolysis",,lowest hemolytic concentration,> 256 µg/mL
O=c1ccc2ccccc2o1,NHEK,"mitochondrial reserve capacity, Seahorse","concentration not given, 6 h",,chance response,90.9%
Cc1ccc(OCCc2cc(F)cc(F)c2)c(C(=O)NCC2CC2)c1,HepG2,,3 (unit not given),relative to: CC50 glucose over CC50 galactose,selectivity ratio,< 1
CC(C)Cn1cnc2c(N)nc3ccccc3c21,HFF-1,,"1 µg/mL, 48 h",,viability,82.3%
NC(=O)c1cc(C2CC2)ccc1OCCc1cccc(F)c1,HepG2,,3 (unit not given),relative to: CC50 glucose over CC50 galactose,selectivity ratio,> 1
CC(C)C[C@H](NC(=O)[C@H](CCCCN)NC(=O)[C@H](CC(C)C)NC(=O)[C@H](CC(C)C)NC(=O)[C@H](CCCCN)NC(=O)CNC(=O)[C@H](CC(C)C)NC(=O)CNC(=O)[C@H](CCCCN)NC(=O)[C@H](CC(C)C)NC(=O)[C@H](CC(C)C)NC(=O)[C@H](CCCCN)NC(=O)[C@@H](N)CC(C)C)C(=O)O,human red blood cells,,"1 h, 37 °C, 10% hemolysis",,lowest hemolytic concentration,> 256 µg/mL
CC(C)c1ccc(NC(=O)N(C)C)cc1,rat hepatoma cells,cell confluency,"24 h, nominal concentration",relative to: baseline IC10 over IC10,toxic ratio,1.4
CC(C)C[C@H](NC(=O)CNC(=O)[C@H](CCCCN)NC(=O)[C@H](CC(C)C)NC(=O)[C@H](CC(C)C)NC(=O)[C@H](CC(C)C)NC(=O)[C@H](CCCCN)NC(=O)CNC(=O)[C@H](CC(C)C)NC(=O)[C@H](CC(C)C)NC(=O)[C@@H](N)CCCCN)C(=O)N[C@@H](CC(C)C)C(=O)N[C@@H](CCCCN)C(=O)O,HEK-293T cells,CCK-8,"4 h, 37 °C, 10% cell death",,lowest cytotoxic concentration,256 µg/mL
O=C(c1ccc(F)cc1)C1CCN(CCCn2c(=O)[nH]c3cc(Cl)ccc32)CC1,African green monkey cells,,5 days,,CC50,32.4 µM
CCNCc1nc2c(N)nc3ccccc3c2n1CC(C)(C)O,HFF-1,,"0.1 µg/mL, 48 h",,viability,85.5%
CC(=O)N[C@@H](CCCCN)C(=O)N[C@@H](CCCCN)C(=O)N[C@@H](C)C(=O)N[C@@H](CC(C)C)C(=O)N[C@@H](CCCCN)C(=O)N[C@@H](CC(C)C)C(=O)N[C@@H](C)C(=O)N[C@@H](CCCCN)C(=O)N[C@@H](CCCCN)C(=O)N1CCC[C@H]1C(=O)N[C@@H](CC(C)C)C(=O)N[C@@H](CCCCN)C(=O)N[C@@H](CC(C)C)C(=O)N[C@@H](CC(C)C)C(=O)N[C@@H](CCCCN)C(N)=O,human red blood cells,haemolysis,"6 h, 37 °C, 5% haematocrit in PBS",,MHC10,> 160 µM
CCN(CC)CCNC(=O)c1cc(Cl)c(NC(=O)COc2ccc(Cl)cc2)cc1OC,African green monkey cells,,5 days,,CC50,2.85 µM
Oc1ccc(C2(c3ccc(O)cc3)c3ccccc3-c3ccccc32)cc1,HepG2 spheroids,annexin V-FITC/PI flow cytometry,"0.10 µM, 96 h",,late apoptotic cells,28.6 ± 6.73%
c1cc2ccc3cccc4ccc(c1)c2c34,rat hepatoma cells,"cell confluency, IncuCyte imaging","24 h, nominal concentration",,IC10,64.4 µM
CN(C)C(=O)c1cc2cnc(Nc3ccc(N4CCNCC4)cn3)nc2n1C1CCCC1,African green monkey cells,,5 days,,CC50,38.9 µM
COc1cc2c(c(OC)c1OC)-c1ccc(OC)c(=O)cc1[C@@H](NC(C)=O)CC2,human peripheral blood lymphocytes,,"0.05 µg/mL, 24 h, without S9",,cytostasis,100%
Oc1ccc(C(c2ccc(O)cc2)(C(F)(F)F)C(F)(F)F)cc1,HepG2 spheroids,annexin V-FITC/PI flow cytometry,"1 µM, 96 h",,late apoptotic cells,32.6 ± 7.96%
OCCN1CCN(CCCN2c3ccccc3Sc3ccc(C(F)(F)F)cc32)CC1,African green monkey cells,,5 days,,CC50,7.76 µM
CCCC(=O)N[C@@H](CCCCN)C(=O)N[C@@H](CCCCN)C(=O)N[C@@H](C)C(=O)N[C@@H](CC(C)C)C(=O)N[C@@H](CCCCN)C(=O)N[C@@H](CC(C)C)C(=O)N[C@@H](C)C(=O)N[C@@H](CCCCN)C(=O)N[C@@H](CCCCN)C(=O)N1CCC[C@H]1C(=O)N[C@@H](CC(C)C)C(=O)N[C@@H](CCCCN)C(=O)N[C@@H](CC(C)C)C(=O)N[C@@H](CC(C)C)C(=O)N[C@@H](CCCCN)C(N)=O,human red blood cells,haemolysis,"6 h, 37 °C, 5% haematocrit in PBS",,MHC10,> 160 µM
COc1cc(C(=O)OCCN2CCN(CCCN3c4ccccc4Sc4ccc(Cl)cc43)CC2)cc(OC)c1OC,African green monkey cells,,5 days,,CC50,> 100 µM
CN(CCC(Oc1ccc(C(F)(F)F)cc1)c1ccccc1)N=O (stereo not drawn),TK6 expressing CYP2C19,,"0.125 µM, 4 h, without S9",relative to: vehicle,relative survival,14.4%
CC[C@H](C)[C@H](NC(=O)[C@H](C)NC(=O)[C@H](CCCNC(=N)N)NC(=O)[C@H](CCCNC(=N)N)NC(=O)[C@@H](NC(=O)[C@H](CO)NC(=O)[C@H](CC(N)=O)NC(=O)[C@@H](NC(=O)[C@H](Cc1ccccc1)NC(=O)[C@H](CO)NC(=O)[C@H](CCCCN)NC(=O)[C@@H](NC(=O)[C@H](Cc1ccccc1)NC(=O)[C@H](CCCCN)NC(=O)[C@@H](N)C(C)C)C(C)C)[C@@H](C)CC)[C@@H](C)CC)C(=O)N[C@@H](CC(N)=O)C(=O)N[C@@H](CCCCN)C(=O)N[C@@H](Cc1ccc(O)cc1)C(=O)N1CCC[C@H]1C(=O)N1CCC[C@H]1C(=O)N[C@H](C(=O)N[C@@H](CC(N)=O)C(=O)N[C@@H](CC(C)C)C(=O)N[C@@H](CCCCN)C(=O)N[C@H](C(=O)N[C@@H](CCCCN)C(=O)N[C@@H](CS)C(=O)N[C@@H](CC(N)=O)C(=O)N[C@@H](CCCNC(=N)N)C(=O)N[C@@H](CC(C)C)C(=O)N[C@@H](CC(N)=O)C(=O)N[C@@H](CO)C(=O)N[C@H](C(=O)N[C@@H](CC(=O)O)C(=O)N1CCC[C@H]1C(=O)N[C@@H](CCCCN)C(=O)N[C@@H](CCC(N)=O)C(=O)N1CCC[C@H]1C(=O)N1CCC[C@H]1C(=O)N[C@@H](CCCNC(=N)N)C(=O)N1CCC[C@H]1C(=O)N[C@@H](Cc1ccccc1)C(=O)N[C@@H](CCCNC(=N)N)C(=O)N[C@@H](CO)C(=O)N[C@@H](Cc1ccccc1)C(=O)N[C@H](C(=O)O)C(C)C)[C@@H](C)CC)[C@@H](C)CC)[C@@H](C)CC,human red blood cells,hemolysis,,,HC50,71.1 µmol/L
CCCCc1oc2ccc(NS(C)(=O)=O)cc2c1C(=O)c1ccc(OCCCN(CCCC)CCCC)cc1,African green monkey cells,,5 days,,CC50,3.85 µM
O=S(=O)(c1ccc(O)cc1)c1ccc(O)cc1,HepG2 spheroids,propidium iodide staining,"concentration not given, 24 h",,necrotic cells,decreased
Nc1nc2c(ncn2[C@@H]2O[C@@H]3COP(=O)(O)O[C@H]4[C@@H](O)[C@H](n5cnc6c(N)ncnc65)O[C@@H]4COP(=O)(O)O[C@@H]2[C@@H]3O)c(=O)[nH]1,HFF-1,,10 µg/mL,,viability,100%
Cc1cc(C(C)(C)c2ccc(O)c(C)c2)ccc1O,HepG2 spheroids,annexin V-FITC/PI flow cytometry,"0.10 µM, 96 h",,necrotic cells,31.7 ± 16.3%
Nc1ncnc2c1ncn2[C@@H]1O[C@@H]2COP(=O)(O)O[C@H]3[C@@H](O)[C@H](n4cnc5c(N)ncnc54)O[C@@H]3COP(=O)(O)O[C@H]2[C@H]1O,HFF-1,,10 µg/mL,,viability,90.2%
c1ccc2c(c1)Sc1ccccc1N2CC1CN2CCC1CC2 (stereo not drawn),African green monkey cells,,5 days,,CC50,7.76 µM
CC(c1ccccc1)(c1ccc(O)cc1)c1ccc(O)cc1,"HepG2 spheroids, dissociated",annexin V-FITC/PI flow cytometry,"0.1 µM, 24 h",,early apoptotic cells,17.7 ± 4.61%

# Excerpt of the above:
Structure (SMILES),cell line,test,conditions,how to read,quantity,value
CCNCc1nc2c(N)nc3ccccc3c2n1CC(C)(C)O,HFF-1,,"0.1 µg/mL, 48 h",,viability,85.5%
CC(=O)N[C@@H](CCCCN)C(=O)N[C@@H](CCCCN)C(=O)N[C@@H](C)C(=O)N[C@@H](CC(C)C)C(=O)N[C@@H](CCCCN)C(=O)N[C@@H](CC(C)C)C(=O)N[C@@H](C)C(=O)N[C@@H](CCCCN)C(=O)N[C@@H](CCCCN)C(=O)N1CCC[C@H]1C(=O)N[C@@H](CC(C)C)C(=O)N[C@@H](CCCCN)C(=O)N[C@@H](CC(C)C)C(=O)N[C@@H](CC(C)C)C(=O)N[C@@H](CCCCN)C(N)=O,human red blood cells,haemolysis,"6 h, 37 °C, 5% haematocrit in PBS",,MHC10,> 160 µM
CCN(CC)CCNC(=O)c1cc(Cl)c(NC(=O)COc2ccc(Cl)cc2)cc1OC,African green monkey cells,,5 days,,CC50,2.85 µM
Oc1ccc(C2(c3ccc(O)cc3)c3ccccc3-c3ccccc32)cc1,HepG2 spheroids,annexin V-FITC/PI flow cytometry,"0.10 µM, 96 h",,late apoptotic cells,28.6 ± 6.73%
c1cc2ccc3cccc4ccc(c1)c2c34,rat hepatoma cells,"cell confluency, IncuCyte imaging","24 h, nominal concentration",,IC10,64.4 µM
